Published values of several laboratories.
Lines come from different studies, so protocols differ. Values joined by “and” are separate records of one study, mostly repeats; a detail may differ.
HDAC1: Histone deacetylase 1 (HDAC1, Homo sapiens, UniProt Q13547)
Chain of UniProt Q13547 (whole entry, looked up): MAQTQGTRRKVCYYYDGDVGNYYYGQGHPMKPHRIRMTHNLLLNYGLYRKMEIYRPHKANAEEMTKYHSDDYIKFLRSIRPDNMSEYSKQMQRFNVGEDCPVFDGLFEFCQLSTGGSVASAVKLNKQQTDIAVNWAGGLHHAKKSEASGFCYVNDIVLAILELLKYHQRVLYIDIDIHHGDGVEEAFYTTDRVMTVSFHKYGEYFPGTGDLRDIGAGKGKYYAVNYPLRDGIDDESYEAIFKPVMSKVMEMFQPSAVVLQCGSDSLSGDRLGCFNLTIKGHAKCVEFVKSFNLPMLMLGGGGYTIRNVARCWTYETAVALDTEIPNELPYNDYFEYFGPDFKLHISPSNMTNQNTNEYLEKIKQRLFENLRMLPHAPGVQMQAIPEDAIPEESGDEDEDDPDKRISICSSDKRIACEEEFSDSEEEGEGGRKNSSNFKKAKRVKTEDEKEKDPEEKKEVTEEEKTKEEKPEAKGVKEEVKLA
Rhomboid protease AarA: Rhomboid protease AarA (Providencia stuartii, UniProt P46116)
Chain of UniProt P46116 (whole entry, looked up): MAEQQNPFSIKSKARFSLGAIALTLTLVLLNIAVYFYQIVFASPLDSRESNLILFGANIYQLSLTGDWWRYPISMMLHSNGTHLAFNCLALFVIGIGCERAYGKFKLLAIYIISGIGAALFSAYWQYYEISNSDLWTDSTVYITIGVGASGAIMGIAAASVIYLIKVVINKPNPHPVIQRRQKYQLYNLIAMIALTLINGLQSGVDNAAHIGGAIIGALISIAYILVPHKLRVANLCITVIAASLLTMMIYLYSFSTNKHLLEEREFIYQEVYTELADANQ
PPARG: Peroxisome proliferator-activated receptor gamma (PPARG, Homo sapiens, UniProt P37231)
Chain of UniProt P37231 (whole entry, looked up): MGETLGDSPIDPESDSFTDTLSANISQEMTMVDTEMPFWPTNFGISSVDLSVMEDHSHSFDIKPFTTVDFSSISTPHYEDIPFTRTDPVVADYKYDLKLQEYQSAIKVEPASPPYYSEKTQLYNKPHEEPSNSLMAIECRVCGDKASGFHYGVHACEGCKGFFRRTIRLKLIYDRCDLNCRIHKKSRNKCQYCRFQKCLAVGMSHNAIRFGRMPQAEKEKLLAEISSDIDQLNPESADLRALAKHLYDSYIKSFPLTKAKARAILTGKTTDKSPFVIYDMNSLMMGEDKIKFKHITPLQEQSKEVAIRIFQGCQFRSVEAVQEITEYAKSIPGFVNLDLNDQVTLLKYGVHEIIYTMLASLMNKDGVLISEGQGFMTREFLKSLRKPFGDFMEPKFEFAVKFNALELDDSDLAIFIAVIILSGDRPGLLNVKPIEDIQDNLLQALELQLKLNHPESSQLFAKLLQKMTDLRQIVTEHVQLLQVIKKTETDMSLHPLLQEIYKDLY
PPARG ligand-binding domain: Peroxisome proliferator-activated receptor gamma, ligand-binding domain (PPARG, Homo sapiens, UniProt P37231)
Chain of UniProt P51681 (whole entry, unmodified, looked up): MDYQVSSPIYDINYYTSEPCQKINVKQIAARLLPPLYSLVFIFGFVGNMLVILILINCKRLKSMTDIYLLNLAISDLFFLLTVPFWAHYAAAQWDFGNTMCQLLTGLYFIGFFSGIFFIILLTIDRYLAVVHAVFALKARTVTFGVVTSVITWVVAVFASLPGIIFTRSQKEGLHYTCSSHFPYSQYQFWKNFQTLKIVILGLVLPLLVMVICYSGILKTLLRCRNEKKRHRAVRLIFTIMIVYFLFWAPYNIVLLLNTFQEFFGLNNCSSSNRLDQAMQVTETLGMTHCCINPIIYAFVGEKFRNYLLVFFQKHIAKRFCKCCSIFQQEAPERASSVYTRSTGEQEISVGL
Chain of UniProt P18421 (whole entry, looked up): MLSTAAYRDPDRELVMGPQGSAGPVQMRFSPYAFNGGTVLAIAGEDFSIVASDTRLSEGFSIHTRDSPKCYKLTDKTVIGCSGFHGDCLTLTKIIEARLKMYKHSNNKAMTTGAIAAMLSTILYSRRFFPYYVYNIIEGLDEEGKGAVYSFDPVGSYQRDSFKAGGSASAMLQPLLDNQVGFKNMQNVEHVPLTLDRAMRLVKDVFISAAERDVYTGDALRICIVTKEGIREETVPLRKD
Chain of UniProt P25779 (whole entry, looked up): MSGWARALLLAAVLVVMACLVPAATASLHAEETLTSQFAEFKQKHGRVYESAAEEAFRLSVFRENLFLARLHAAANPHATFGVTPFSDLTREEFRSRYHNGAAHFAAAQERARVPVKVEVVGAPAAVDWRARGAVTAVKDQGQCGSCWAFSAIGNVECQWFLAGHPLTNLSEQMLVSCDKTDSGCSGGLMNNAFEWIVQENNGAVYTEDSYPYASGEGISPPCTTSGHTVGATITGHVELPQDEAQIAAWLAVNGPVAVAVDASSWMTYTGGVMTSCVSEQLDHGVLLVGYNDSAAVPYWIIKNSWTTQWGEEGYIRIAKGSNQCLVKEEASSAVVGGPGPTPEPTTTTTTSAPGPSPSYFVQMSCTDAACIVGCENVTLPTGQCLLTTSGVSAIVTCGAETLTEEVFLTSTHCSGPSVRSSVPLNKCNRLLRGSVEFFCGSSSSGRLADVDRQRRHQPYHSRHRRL
Chain of UniProt P28064 (whole entry, looked up): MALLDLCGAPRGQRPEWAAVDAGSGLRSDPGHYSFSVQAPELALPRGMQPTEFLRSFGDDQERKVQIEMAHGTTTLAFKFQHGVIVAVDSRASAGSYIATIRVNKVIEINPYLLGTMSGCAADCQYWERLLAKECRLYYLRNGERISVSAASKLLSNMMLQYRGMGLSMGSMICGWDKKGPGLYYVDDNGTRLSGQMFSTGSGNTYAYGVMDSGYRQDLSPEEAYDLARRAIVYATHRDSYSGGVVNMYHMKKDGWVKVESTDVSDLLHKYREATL
Chain of UniProt O75716 (whole entry, looked up): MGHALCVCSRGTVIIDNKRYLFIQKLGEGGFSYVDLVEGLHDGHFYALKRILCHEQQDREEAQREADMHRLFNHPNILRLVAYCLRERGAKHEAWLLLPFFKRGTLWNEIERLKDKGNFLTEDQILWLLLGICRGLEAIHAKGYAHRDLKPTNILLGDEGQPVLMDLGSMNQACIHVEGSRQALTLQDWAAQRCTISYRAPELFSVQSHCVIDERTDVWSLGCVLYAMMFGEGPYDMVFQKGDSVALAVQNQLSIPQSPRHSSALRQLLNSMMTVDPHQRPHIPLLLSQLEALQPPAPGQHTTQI
Chain of UniProt Q9UM07 (whole entry, looked up): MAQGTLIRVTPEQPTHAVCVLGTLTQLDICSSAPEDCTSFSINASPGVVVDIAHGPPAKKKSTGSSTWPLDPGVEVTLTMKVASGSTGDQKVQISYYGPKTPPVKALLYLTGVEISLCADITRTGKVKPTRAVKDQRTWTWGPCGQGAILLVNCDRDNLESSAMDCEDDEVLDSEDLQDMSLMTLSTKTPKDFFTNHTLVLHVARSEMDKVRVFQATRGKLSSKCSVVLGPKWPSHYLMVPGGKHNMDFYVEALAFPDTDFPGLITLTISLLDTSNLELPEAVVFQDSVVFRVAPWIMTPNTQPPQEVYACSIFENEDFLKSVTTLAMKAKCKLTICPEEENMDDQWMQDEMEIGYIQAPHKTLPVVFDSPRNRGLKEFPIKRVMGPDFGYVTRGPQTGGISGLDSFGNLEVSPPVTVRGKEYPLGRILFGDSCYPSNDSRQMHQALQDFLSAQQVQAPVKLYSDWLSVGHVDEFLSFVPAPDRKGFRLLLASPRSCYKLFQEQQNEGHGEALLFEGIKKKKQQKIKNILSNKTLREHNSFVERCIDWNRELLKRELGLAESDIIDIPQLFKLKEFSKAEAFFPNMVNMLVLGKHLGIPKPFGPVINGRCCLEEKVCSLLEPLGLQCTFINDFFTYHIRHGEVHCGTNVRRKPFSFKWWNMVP
Chain of UniProt Q07820 (whole entry, looked up): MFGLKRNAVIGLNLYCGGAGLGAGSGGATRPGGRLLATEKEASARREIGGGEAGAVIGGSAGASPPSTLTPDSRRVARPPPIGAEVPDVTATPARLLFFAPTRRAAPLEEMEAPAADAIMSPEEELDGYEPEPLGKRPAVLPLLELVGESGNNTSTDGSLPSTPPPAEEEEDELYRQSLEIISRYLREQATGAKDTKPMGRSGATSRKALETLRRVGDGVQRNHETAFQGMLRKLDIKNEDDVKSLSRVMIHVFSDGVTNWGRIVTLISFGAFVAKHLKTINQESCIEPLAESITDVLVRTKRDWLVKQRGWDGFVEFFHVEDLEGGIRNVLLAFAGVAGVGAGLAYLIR

SMILES | target | test | system | setting | IC50
Cc1nc2c(F)cc(-c3nc(Nc4ccc(CC(=O)NCCCCCC(=O)NO)cc4)ncc3F)cc2n1C(C)C | HDAC1 | enzyme activity, inhibitor |  |  | 8.4 nM
Cc1nnc(C(C)C)n1C1CC2CCC(C1)N2CCC(NC(=O)COCCOCCOCCOCCNC(=O)Cc1ccc(-c2nncnn2)cc1)c1ccccc1 (centres unmarked) | C-C chemokine receptor type 5 (CCR5, Homo sapiens, UniProt P51681, Y184K) | calcium mobilisation, inhibitor | HEK293T expressing CCR5 | with: PSC-RANTES | 23.1 nM and 9.62 nM
COCCNC(=O)c1ccccc1NC(=O)C(C(F)(F)F)C(F)(F)F | Rhomboid protease AarA | enzyme activity, inhibitor, fluorescence |  |  | 18000 nM
Cc1c(Cc2cccc(OC(C)(C)C(=O)O)c2)c2ccc(C(=O)N[C@@H](C)c3cccc(C(C)(C)C)c3)cc2n1CC(C)(C)C | PPARG | ligand displacement, TR-FRET |  |  | 10 nM
O=C(Nc1ccccc1OCC1CC1)C(C(F)(F)F)C(F)(F)F | Rhomboid protease AarA | enzyme activity, inhibitor, fluorescence |  |  | 1000 nM
Cc1c(Cc2cccc(OCC(=O)O)c2)c2ccc(C(=O)N[C@@H](C)c3cccc(C(C)(C)C)c3)cc2n1C | PPARG ligand-binding domain | reporter gene, luciferase reporter | HEK293T, Gal4-PPARγ LBD |  | 37200 nM
O=C1CC(c2ccccc2)N1S(=O)(=O)c1cccc(-c2ccccc2)c1 (centres unmarked) | Rhomboid protease AarA | enzyme activity, inhibitor, fluorogenic peptide |  | 23 min pre-incubation | 33000 nM
C[C@H]1[C@@H](O)O[C@@H]2O[C@@]3(C)CC[C@H]4[C@H](C)CC[C@@H]1[C@@]24OO3 | Induced myeloid leukemia cell differentiation protein Mcl-1 (MCL1, Homo sapiens, UniProt Q07820) | binding, inhibitor, fluorescence polarization |  | with: labeled Bid-BH3 peptide | > 200000 nM
Cc1c(C)n(-c2ccc(Br)cc2)c2ncnc(N3CCC(C(N)C(=O)N4CCCC4)CC3)c12 (centres unmarked) | Protein-arginine deiminase type-4 (PADI4, Homo sapiens, UniProt Q9UM07) | enzyme activity, inhibitor, fluorescence |  |  | 15900 nM
Cc1c(Cc2ccc(Cl)c(OC(C)C(=O)O)c2)c2ccc(C(=O)NCc3ccc(C(C)(C)C)cc3)cc2n1CC(C)C (centres unmarked) | PPARG ligand-binding domain | reporter gene, luciferase reporter | HEK293T, Gal4-PPARγ LBD |  | 6000 nM
COC(=O)CCCCCC(=O)Nc1ccc(Nc2ncc(F)c(-c3cc(F)c4nc(C)n(C(C)C)c4c3)n2)cc1 | HDAC1 | enzyme activity, inhibitor |  |  | > 1000 nM
Cc1c(Cc2cccc(OC(C)(C)C(=O)O)c2)c2ccc(C(=O)N[C@@H](C)c3cccc(OC(F)(F)F)c3)cc2n1C | PPARG | ligand displacement, TR-FRET |  |  | 1 nM
CCC(C(=O)NC1CCCCC1)n1c(SCc2cccc(F)c2)nc2ccncc21 (centres unmarked) | Cruzipain (Trypanosoma cruzi, UniProt P25779) | enzyme activity, inhibitor |  |  | 6000 nM
Cc1c(Cc2cccc(OC(C)C(=O)O)c2)c2ccc(C(=O)NC(C)c3ccc(C(C)C)cc3)cc2n1C (mixture of isomers) | PPARG ligand-binding domain | reporter gene, luciferase reporter | HEK293T, Gal4-PPARγ LBD |  | 790 nM
Cc1ccc(CNC(=O)[C@H](CCc2ccccc2)NC(=O)[C@H](CCc2ccccc2)NC(=O)[C@@H](N)Cc2ccncc2)cc1 | Psmb1/Psmb8 (Rattus norvegicus, UniProt P18421+P28064) | enzyme activity, inhibitor |  | with: Ac-ANW-aminocoumarin, PA28α 12 nM | 880 nM
Cc1cccc(C2CC(=O)N2S(=O)(=O)c2cccc(Cl)c2)c1 (centres unmarked) | Rhomboid protease AarA | enzyme activity, inhibitor, fluorescence |  |  | 12000 nM
Nc1ncc2c(n1)-c1c([nH]c3ccc(C4=CCOCC4)cc13)CCC2 | Serine/threonine-protein kinase 16 (STK16, Homo sapiens, UniProt O75716) | enzyme activity, inhibitor, radiometric |  |  | 1200 nM

For quick reference, copied from above:
SMILES | target | test | system | setting | IC50
O=C(Nc1ccccc1OCC1CC1)C(C(F)(F)F)C(F)(F)F | Rhomboid protease AarA | enzyme activity, inhibitor, fluorescence |  |  | 1000 nM
